Measurements gathered from unrelated publications.
Protocols differ between the studies behind these lines.
POL3: POL3 (Saccharomyces cerevisiae, UniProt P15436)
UniProt P15436, sequence (whole entry, looked up): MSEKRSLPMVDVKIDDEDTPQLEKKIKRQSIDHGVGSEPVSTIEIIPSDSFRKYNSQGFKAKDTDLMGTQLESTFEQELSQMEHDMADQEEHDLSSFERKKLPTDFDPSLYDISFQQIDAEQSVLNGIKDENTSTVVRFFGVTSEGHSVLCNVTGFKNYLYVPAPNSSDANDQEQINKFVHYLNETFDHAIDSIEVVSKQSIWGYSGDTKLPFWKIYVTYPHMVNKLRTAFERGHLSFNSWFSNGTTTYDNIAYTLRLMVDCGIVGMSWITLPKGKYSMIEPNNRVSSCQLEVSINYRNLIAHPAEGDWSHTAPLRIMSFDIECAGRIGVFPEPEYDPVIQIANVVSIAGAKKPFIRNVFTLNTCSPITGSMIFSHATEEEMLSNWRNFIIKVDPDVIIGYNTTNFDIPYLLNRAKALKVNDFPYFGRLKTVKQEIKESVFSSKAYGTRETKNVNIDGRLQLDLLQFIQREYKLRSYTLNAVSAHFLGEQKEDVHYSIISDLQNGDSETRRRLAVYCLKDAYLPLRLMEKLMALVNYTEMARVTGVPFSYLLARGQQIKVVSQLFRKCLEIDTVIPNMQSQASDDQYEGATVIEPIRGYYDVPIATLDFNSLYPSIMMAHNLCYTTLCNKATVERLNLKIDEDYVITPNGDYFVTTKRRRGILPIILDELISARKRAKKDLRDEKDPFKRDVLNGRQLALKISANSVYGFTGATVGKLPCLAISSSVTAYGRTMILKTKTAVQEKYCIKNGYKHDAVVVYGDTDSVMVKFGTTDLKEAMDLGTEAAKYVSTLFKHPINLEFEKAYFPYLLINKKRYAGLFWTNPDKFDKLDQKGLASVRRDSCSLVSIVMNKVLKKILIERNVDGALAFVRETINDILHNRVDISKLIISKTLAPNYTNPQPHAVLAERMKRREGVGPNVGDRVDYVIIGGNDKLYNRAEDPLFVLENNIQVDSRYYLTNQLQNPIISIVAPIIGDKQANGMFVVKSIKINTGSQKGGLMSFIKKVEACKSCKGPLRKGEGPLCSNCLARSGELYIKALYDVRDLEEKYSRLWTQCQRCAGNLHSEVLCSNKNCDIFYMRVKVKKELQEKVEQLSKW
T1: PSMG1/PSMG2 heterodimer (Homo sapiens); chain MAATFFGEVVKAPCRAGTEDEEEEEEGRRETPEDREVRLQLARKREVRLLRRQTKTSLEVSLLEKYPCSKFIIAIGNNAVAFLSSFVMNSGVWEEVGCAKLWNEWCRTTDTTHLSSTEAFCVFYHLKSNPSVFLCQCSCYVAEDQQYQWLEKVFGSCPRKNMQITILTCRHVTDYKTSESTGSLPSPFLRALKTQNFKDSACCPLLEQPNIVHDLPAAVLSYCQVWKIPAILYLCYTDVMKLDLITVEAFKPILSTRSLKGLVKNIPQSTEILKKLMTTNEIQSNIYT; chain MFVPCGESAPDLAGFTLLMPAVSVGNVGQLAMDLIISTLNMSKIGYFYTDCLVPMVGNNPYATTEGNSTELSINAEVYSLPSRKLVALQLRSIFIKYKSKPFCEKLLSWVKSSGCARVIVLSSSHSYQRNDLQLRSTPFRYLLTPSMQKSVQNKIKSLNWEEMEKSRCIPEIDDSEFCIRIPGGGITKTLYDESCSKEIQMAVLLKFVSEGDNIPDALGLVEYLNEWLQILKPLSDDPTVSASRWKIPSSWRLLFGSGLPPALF
B1: HypB N-terminal extension 2-76 (Escherichia coli, UniProt P0AAN3); chain CTTCGCGEGNLYIEGDEHNPHSAFRSAPFAPAARPKMKITGIKAPEFTPSQTEEGDLHYGHGEAGTHAPGMSQRRW
B2: SNAPC3 (Homo sapiens, UniProt Q92966); chain MAEGSRGGPTCSGVGGRQDPVSGSGGCNFPEYELPELNTRAFHVGAFGELWRGRLRGAGDLSLREPPASALPGSQAADSDREDAAVARDLDCSLEAAAELRAVCGLDKLKCLEDGEDPEVIPENTDLVTLGVRKRFLEHREETITIDRACRQETFVYEMESHAIGKKPENSADMIEEGELILSVNILYPVIFHKHKEHKPYQTMLVLGSQKLTQLRDSIRCVSDLQIGGEFSNTPDQAPEHISKDLYKSAFFYFEGTFYNDKRYPECRDLSRTIIEWSESHDRGYGKFQTARMEDFTFNDLCIKLGFPYLYCHQGDCEHVIVITDIRLVHHDDCLDRTLYPLLIKKHWLWTRKCFVCKMYTARWVTNNDSFAPEDPCFFCDVCFRMLHYDSEGNKLGEFLAYPYVDPGTFN
B3: CCDC32 66-130 Y77I (Mus musculus, UniProt Q8BS39); chain KPWAPLHDSEVILASLEKKLRRIKGLNEEVTSKDMLRTLAQAKKECWDRFLQEKLASEFFVDGLD
B4: SPTB 1397-2137 (human, UniProt P11277); 125I-iodinated; chain AMEDQLRSDDPGKDLTSVNRMLAKLKRVEDQVNVRKEELGELFAQVPSMGEEGGDADLSIEKRFLDLLEPLGRRKKQLESSRAKLQISRDLEDETLWVEERLPLAQSADYGTNLQTVQLFMKKNQTLQNEILGHTPRVEDVLQRGQQLVEAAEIDCQDLEERLGHLQSSWDRLREAAAGRLQRLRDANEAQQYYLDADEAEAWIGEQELYVISDEIPKDEEGAIVMLKRHLRQQRAVEDYGRNIKQLASRAQGLLSAGHPEGEQIIRLQGQVDKHYAGLKDVAEERKRKLENMYHLFQLKRETDDLEQWISEKELVASSPEMGQDFDHVTLLRDKFRDFARETGAIGQERVDNVNAFIERLIDAGHSEAATIAEWKDGLNEMWADLLELIDTRMQLLAASYDLHRYFYTGAEILGLIDEKHRELPEDVGLDASTAESFHRVHTAFERELHLLGVQVQQFQDVATRLQTAYAGEKAEAIQNKEQEVSAAWQALLDACAGRRTQLVDTADKFRFFSMARDLLSWMESIIRQIETQERPRDVSSVELLMKYHQGINAEIETRSKNFSACLELGESLLQRQHQASEEIREKLQQVMSRRKEMNEKWEARWERLRMLLEVCQFSRDASVAEAWLIAQEPYLASGDFGHTVDSVEKLIKRHEAFEKSTASWAERFAALEKPTTLELKERQIAERPAEETGPQEEEGETAGEAPVSHHAATERTSPVSLWSRLSSSWESLQPEPSHPY
B5: POL32 (Saccharomyces cerevisiae, UniProt P47110); sequence looked up; chain MDQKASYFINEKLFTEVKPVLFTDLIHHLKIGPSMAKKLMFDYYKQTTNAKYNCVVICCYKDQTIKIIHDLSNIPQQDSIIDCFIYAFNPMDSFIPYYDIIDQKDCLTIKNSYELKVSESSKIIERTKTLEEKSKPLVRPTARSKTTPEETTGRKSKSKDMGLRSTALLAKMKKDRDDKETSRQNELRKRKEENLQKINKQNPEREAQMKELNNLFVEDDLDTEEVNGGSKPNSPKETDSNDKDKNNDDLEDLLETTAEDSLMDVPKIQQTKPSETEHSKEPKSEEEPSSFIDEDGYIVTKRPATSTPPRKPSPVVKRALSSSKKQETPSSNKRLKKQGTLESFFKRKAK
B6: NUP60 200-318 (Saccharomyces cerevisiae, UniProt P39705); sequence looked up; chain SMNTTLGSIGSRKYSFNYSSLPSPYKTTVYRYSAAKKIPDTYTANTSAQSIASAKSVRSGVSKSAPSKKISNTAAALVSLLDENDSKKNNAASELANPYSSYVSQIRKHKRVSPNAAPR
B7: lpxC 1-305 (Escherichia coli, UniProt P0A725); chain MIKQRTLKRIVQATGVGLHTGKKVTLTLRPAPANTGVIYRRTDLNPPVDFPADAKSVRDTMLCTCLVNEHDVRISTVEHLNAALAGLGIDNIVIEVNAPEIPIMDGSAAPFVYLLLDAGIDELNCAKKFVRIKETVRVEDGDKWAEFKPYNGFSLDFTIDFNHPAIDSSNQRYAMNFSADAFMRQISRARTFGFMRDIEYLQSRGLCLGGSFDCAIVVDDYRVLNEDGLRFEDEFVRHKMLDAIGDLFMCGHNIIGAFTAYKSGHALNNKLLQAVLAKQEAWEYVTFQDDAELPLAFKAPSAVLA
B8: spt16 1-442 (Schizosaccharomyces pombe, UniProt O94267); chain MAEYEIDEITFHKRLGILLTSWKNEEDGKTLFQDCDSILVTVGAHDDTNPYQKSTALHTWLLGYEFPSTLILLEKHRITILTSVNKANMLTKLAETKGAAADVNILKRTKDAEENKKLFEKIIEYIRATNKKVGVFPKDKTQGKFINEWDSIFEPVKSEFNLVDASLGLAKCLAIKDEQELANIKGASRVSVAVMSKYFVDELSTYIDQGKKITHSKFSDQMESLIDNEAFFQTKSLKLGDIDLDQLEWCYTPIIQSGGSYDLKPSAITDDRNLHGDVVLCSLGFRYKSYCSNVGRTYLFDPDSEQQKNYSFLVALQKKLFEYCRDGAVIGDIYTKILGLIRAKRPDLEPNFVRNLGAGIGIEFRESSLLVNAKNPRVLQAGMTLNLSIGFGNLINPHPKNSQSKEYALLLIDTIQITRSDPIVFTDSPKAQGDISYFFGED
B9: TARBP2 (Homo sapiens, UniProt Q15633); sequence looked up; chain MSEEEQGSGTTTGCGLPSIEQMLAANPGKTPISLLQEYGTRIGKTPVYDLLKAEGQAHQPNFTFRVTVGDTSCTGQGPSKKAAKHKAAEVALKHLKGGSMLEPALEDSSSFSPLDSSLPEDIPVFTAAAAATPVPSVVLTRSPPMELQPPVSPQQSECNPVGALQELVVQKGWRLPEYTVTQESGPAHRKEFTMTCRVERFIEIGSGTSKKLAKRNAAAKMLLRVHTVPLDARDGNEVEPDDDHFSIGVGSRLDGLRNRGPGCTWDSLRNSVGEKILSLRSCSLGSLGALGPACCRVLSELSEEQAFHVSYLDIEELSLSGLCQCLVELSTQPATVCHGSATTREAARGEAARRALQYLKIMAGSK
B10: MDM4 23-111, p53-binding domain (Homo sapiens, UniProt O15151); chain GPLGSQINQVRPKLPLLKILHAAGAQGEMFTVKEVMHYLGQYIMVKQLYDQQEQHMVYCGGDLLGELLGRQSFSVKDPSPLYDMLRKNLVTLAT
B11: TFB2M 60-396 (Homo sapiens, UniProt Q9H5Q4); sequence looked up; chain PPRKASKASLDFKRYVTDRRLAETLAQIYLGKPSRPPHLLLECNPGPGILTQALLEAGAKVVALESDKTFIPHLESLGKNLDGKLRVIHCDFFKLDPRSGGVIKPPAMSSRGLFKNLGIEAVPWTADIPLKVVGMFPSRGEKRALWKLAYDLYSCTSIYKFGRIEVNMFIGEKEFQKLMADPGNPDLYHVLSVIWQLACEIKVLHMEPWSSFDIYTRKGPLENPKRRELLDQLQQKLYLIQMIPRQNLFTKNLTPMNYNIFFHLLKHCFGRRSATVIDHLRSLTPLDARDILMQIGKQEDEKVVNMHPQDFKTLFETIERSKDCAYKWLYDETLEDR
UniProt Q9UPY3, sequence (whole entry, looked up): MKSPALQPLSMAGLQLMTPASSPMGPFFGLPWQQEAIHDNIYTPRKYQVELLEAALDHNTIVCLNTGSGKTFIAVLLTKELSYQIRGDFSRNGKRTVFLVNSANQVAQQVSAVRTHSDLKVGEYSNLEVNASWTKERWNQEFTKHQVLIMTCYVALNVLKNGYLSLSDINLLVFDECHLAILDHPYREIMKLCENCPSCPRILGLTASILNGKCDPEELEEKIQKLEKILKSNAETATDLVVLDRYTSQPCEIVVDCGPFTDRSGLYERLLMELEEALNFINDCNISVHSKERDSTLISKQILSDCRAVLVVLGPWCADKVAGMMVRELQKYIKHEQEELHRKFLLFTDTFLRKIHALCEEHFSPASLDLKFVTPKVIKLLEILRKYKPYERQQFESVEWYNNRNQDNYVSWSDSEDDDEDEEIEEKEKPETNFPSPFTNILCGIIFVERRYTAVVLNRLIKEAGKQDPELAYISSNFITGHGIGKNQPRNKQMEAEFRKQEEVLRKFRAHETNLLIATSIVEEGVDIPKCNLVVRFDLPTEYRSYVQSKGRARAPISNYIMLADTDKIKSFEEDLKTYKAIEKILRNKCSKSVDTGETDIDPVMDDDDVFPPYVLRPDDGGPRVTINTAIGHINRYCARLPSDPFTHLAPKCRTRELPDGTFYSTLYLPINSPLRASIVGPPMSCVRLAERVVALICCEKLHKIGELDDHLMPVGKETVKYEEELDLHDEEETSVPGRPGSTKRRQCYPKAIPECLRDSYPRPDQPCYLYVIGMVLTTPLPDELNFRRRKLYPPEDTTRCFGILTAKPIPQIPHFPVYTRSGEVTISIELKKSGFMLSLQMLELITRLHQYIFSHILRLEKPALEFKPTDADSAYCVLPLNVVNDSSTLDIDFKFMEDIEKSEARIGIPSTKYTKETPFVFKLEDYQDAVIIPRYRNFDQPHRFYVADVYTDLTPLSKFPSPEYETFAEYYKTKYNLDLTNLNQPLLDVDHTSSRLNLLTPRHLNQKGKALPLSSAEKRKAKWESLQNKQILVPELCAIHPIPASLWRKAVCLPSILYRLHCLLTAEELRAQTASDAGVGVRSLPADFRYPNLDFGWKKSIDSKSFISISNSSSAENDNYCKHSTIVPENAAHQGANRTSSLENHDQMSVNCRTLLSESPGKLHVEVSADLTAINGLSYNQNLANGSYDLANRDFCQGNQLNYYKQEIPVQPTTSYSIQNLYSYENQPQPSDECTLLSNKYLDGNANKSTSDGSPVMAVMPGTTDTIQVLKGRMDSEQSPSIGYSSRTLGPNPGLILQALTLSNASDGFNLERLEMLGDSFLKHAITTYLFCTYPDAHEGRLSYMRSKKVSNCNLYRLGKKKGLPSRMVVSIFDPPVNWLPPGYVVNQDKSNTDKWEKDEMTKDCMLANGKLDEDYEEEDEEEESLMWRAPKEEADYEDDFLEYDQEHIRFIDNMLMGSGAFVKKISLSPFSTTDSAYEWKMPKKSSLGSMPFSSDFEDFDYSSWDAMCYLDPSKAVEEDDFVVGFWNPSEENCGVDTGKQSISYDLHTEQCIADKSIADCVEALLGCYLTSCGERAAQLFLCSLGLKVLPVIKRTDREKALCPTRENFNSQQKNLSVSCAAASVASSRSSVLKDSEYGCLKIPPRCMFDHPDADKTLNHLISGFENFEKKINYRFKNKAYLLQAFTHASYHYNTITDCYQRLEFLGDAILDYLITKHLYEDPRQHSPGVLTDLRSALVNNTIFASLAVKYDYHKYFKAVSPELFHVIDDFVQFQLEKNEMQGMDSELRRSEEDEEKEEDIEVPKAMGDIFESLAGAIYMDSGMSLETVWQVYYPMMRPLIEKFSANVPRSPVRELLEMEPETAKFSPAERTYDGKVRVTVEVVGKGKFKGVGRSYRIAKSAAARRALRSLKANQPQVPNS
UniProt O14114, sequence (whole entry, looked up): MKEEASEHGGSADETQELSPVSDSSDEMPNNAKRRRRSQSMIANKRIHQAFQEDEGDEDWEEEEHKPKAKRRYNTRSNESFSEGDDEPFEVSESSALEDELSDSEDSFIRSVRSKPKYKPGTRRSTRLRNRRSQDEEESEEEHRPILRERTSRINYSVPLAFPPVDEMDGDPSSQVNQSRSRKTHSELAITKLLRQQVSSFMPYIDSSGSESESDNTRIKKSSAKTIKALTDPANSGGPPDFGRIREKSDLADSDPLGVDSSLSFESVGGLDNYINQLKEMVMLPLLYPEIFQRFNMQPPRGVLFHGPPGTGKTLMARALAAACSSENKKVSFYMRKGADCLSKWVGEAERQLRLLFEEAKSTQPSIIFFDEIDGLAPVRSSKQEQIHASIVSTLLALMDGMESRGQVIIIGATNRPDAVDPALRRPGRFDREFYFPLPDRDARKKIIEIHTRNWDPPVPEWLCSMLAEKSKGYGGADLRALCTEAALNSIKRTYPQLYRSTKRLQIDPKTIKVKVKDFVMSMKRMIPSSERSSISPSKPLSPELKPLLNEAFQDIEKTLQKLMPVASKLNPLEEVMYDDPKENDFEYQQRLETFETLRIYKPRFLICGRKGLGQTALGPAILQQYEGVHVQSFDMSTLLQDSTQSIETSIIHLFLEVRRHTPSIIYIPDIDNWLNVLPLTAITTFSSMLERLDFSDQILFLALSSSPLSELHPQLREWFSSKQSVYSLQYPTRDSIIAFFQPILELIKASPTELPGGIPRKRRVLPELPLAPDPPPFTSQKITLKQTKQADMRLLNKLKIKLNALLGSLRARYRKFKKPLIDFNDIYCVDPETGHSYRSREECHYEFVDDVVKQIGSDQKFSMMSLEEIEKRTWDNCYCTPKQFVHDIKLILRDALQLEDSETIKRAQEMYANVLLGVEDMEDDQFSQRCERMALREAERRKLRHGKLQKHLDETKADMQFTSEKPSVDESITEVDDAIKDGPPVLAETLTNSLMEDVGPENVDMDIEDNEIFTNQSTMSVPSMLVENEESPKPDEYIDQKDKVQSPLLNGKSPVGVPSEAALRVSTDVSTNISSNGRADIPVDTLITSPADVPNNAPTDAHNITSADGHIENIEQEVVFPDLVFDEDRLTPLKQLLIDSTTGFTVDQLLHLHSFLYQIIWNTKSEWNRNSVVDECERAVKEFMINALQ
UniProt O14818, sequence (whole entry, looked up): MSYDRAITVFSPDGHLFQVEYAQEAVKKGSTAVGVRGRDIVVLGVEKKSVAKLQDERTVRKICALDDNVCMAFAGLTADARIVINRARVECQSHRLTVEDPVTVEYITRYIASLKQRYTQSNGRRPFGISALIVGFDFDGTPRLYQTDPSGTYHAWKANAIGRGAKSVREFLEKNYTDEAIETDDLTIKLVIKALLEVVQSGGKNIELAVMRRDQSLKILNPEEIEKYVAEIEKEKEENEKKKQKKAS
UniProt P46957, sequence (whole entry, looked up): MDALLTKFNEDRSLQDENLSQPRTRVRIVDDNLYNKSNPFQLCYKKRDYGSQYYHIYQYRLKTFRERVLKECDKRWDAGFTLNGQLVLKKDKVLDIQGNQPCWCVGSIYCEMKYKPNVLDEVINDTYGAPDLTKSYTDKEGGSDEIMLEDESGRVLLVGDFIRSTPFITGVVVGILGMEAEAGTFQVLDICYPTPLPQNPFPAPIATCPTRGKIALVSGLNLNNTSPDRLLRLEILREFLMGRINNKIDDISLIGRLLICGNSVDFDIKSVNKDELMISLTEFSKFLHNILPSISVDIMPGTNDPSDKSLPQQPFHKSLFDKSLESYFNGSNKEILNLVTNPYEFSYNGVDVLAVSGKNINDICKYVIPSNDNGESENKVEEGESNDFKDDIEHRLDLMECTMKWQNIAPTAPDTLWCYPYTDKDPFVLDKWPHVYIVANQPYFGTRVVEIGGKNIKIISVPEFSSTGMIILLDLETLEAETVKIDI

Molecule	tested on	test	test system	conditions	how to read	endpoint	result
CDC48 (Saccharomyces cerevisiae, UniProt P25694)	UFD1/NPL4 (Saccharomyces cerevisiae)	pull-down				binding	binds
MYO5A fragment (Homo sapiens) (sequence not shown)	CALM1 (Homo sapiens, UniProt P0DP23)	co-IP				binding	binds
NPDALPETLV	human MAGI1-3/6 PDZ construct (MBP fusion)	surface plasmon resonance	peptide	concentration not given	higher = stronger binding	normalised SPR binding response	62.4 normalised RU
OsMPK3-YFP (Oryza sativa, UniProt Q10N20)	OsCPK13 full length, GST fusion (Oryza sativa, UniProt Q9FXQ3)	pull-down				binding	binds
B1 (HypB N-terminal extension 2-76)	slyD (Escherichia coli, UniProt P0A9K9)	SEC				binding	binds
POL31 (Saccharomyces cerevisiae, UniProt P46957)	POL3	mass photometry				binding	binds
B2 (SNAPC3)	SNAPC4 (Homo sapiens, UniProt Q5SXM2)	cryo-EM				binding	binds
B3 (CCDC32 66-130 Y77I)	AP-2 α/σ2 (Mus musculus)	pull-down				binding	binds
B4 (SPTB 1397-2137)	ANK1 (Homo sapiens, UniProt P16157)	co-sedimentation				binding	binds
B5 (POL32)	POL3	mass photometry				binding	binds
RIE1 (Arabidopsis thaliana, UniProt Q8GUU2)	ACS7 15-447 (Arabidopsis thaliana, UniProt Q9STR4)	pull-down		2 h, 4 °C		binding	binds
B6 (NUP60 200-318)	NUP85/SEH1 Nup85 1-564 (Saccharomyces cerevisiae)	pull-down				binding	binds
B7 (lpxC 1-305)	lapB 21-389 G121A (Escherichia coli, UniProt P0AB58)	pull-down				binding	binds
B8 (spt16 1-442)	abo1 (Schizosaccharomyces pombe, UniProt O14114)	pull-down				binding	binds
B9 (TARBP2)	DICER1 (Homo sapiens, UniProt Q9UPY3)	SEC				binding	binds
B10	MDM4 170-260 W239S/F240S (Homo sapiens, UniProt O15151)	NMR titration				binding	binds
GSGAGHETIV	human MAGI1-3/6 PDZ construct (MBP fusion)	automated holdup	peptide, crude extract	concentration not given, corrected by standard peak, unit not given	reference: biotin control resin, higher = stronger binding	binding intensity	0.213
PSMA7 (Homo sapiens, UniProt O14818)	T1, PSMG1/PSMG2 heterodimer (Homo sapiens)	cryo-EM				binding	binds
RRRRKRVNTKRSSRAFRAHLRAPL (DRD2 217-240 (Homo sapiens, UniProt P14416))	EPB41L2 939-1005 E1004I (Homo sapiens, UniProt O43491)	ITC				binding	binds
B11 (TFB2M 60-396)	POLRMT 43-1230 (Homo sapiens, UniProt O00411)	cryo-EM				binding	binds
MSEKPKVYQGVRVKITVKELLQQRRAHQAASGGTRSGG (POU2AF3 1-38 (Homo sapiens, UniProt A8K830-5); sequence looked up)	POU2F3 183-341 (Homo sapiens, UniProt Q9UKI9-1)	crystal structure				binding	binds
NGVTKTILEPRARVEKDYGKISLEHKTKYSNEYGDEEKSAENDTSSLGSR (gld-3 860-909 (Caenorhabditis elegans, UniProt Q95ZK7); sequence looked up)	fbf-2 164-575 (Caenorhabditis elegans, UniProt Q09312)	pull-down				binding	binds
VPS72 (Saccharomyces cerevisiae, UniProt Q03388)	SWR1 (Saccharomyces cerevisiae, UniProt Q05471)	cryo-EM				binding	binds
colistin	Enterobacter cloacae	broth microdilution	clinical isolate RKI-No_766/15			MIC	≤ 0.5 µg/mL

Some of these lines once more:
Molecule	tested on	test	test system	conditions	how to read	endpoint	result
RIE1 (Arabidopsis thaliana, UniProt Q8GUU2)	ACS7 15-447 (Arabidopsis thaliana, UniProt Q9STR4)	pull-down		2 h, 4 °C		binding	binds
B6 (NUP60 200-318)	NUP85/SEH1 Nup85 1-564 (Saccharomyces cerevisiae)	pull-down				binding	binds
B7 (lpxC 1-305)	lapB 21-389 G121A (Escherichia coli, UniProt P0AB58)	pull-down				binding	binds
B8 (spt16 1-442)	abo1 (Schizosaccharomyces pombe, UniProt O14114)	pull-down				binding	binds
